# Measured values of several laboratories.
# Compare with care: the assays were run in different laboratories. “And” joins repeats or separate records; there may be more than shown. ± marks the error that the study gave.
Structure (SMILES),cell line,assay,setting,EC50
CC(C)[C@@H](C)/C=C/[C@@H](C)[C@H]1CC[C@@H]2[C@]1(C)CC[C@H]1[C@]23C=C[C@]2(C[C@@H](OC(=O)CCCC(=O)O)CC[C@]12C)OO3,SUM149,"cell growth or viability, ATP luminescence",,5 µM
Cc1cc2c(C(=O)Cc3ccccc3)c(O)c(O)cc2c(O)c1-c1c(C)cc2c(C(=O)Cc3ccccc3)c(O)c(O)cc2c1O,H1299,"cell viability, ATP luminescence",72 h,3.5 µM
CSCC[C@H](NC(=O)[C@@H](NC(=O)[C@H](CCSC)NC(=O)[C@H](Cc1ccc(O)cc1)NC(=O)[C@H](CCCCN)NC(=O)[C@@H](N)Cc1c[nH]c2ccccc12)C(C)C)C(N)=O,human neutrophils,"calcium mobilisation, agonist",with: 2.5 mM probenecid,0.0014 µM
CSCC[C@H](NC(=O)[C@H](Cc1ccc(O)cc1)NC(=O)[C@H](CCCCN)NC(=O)[C@@H](N)Cc1c[nH]c2ccccc12)C(=O)N[C@H](C(=O)N[C@H](CCSC)C(N)=O)C(C)C,human neutrophils,"calcium mobilization, agonist",,0.001 µM
CC(C)[C@@H]1NC(=O)[C@H](CO)NC(=O)[C@H](CO)NC(=O)[C@H](CO)N(C)C(=O)[C@H](CC(=O)O)NC(=O)[C@H](CO)NC(=O)[C@H](Cc2ccccc2)NC(=O)CSC[C@@H](C(=O)NCC(N)=O)NC(=O)[C@H](CC(N)=O)NC(=O)[C@H](CCCNC(=N)N)NC(=O)[C@H](Cc2ccc(-c3ccccc3)cc2)NC(=O)[C@H](Cc2ccc(-c3ccccc3)cc2)NC(=O)[C@H](CC(N)=O)NC(=O)[C@@H]2CCCN2C1=O,SJSA-1,cell growth or viability,,> 30 µM
C=CC(=O)Nc1cc(-c2nn(C3CCC(N4CCN(C(C)=O)CC4)CC3)c3ncnc(N)c23)ccc1Oc1ccccc1 (centres unmarked),OVCAR-8,"cell growth or viability, ATP luminescence",72 h,≥ 10 µM and > 10 µM
F[P-](F)(F)(F)(F)F.F[P-](F)(F)(F)(F)F.[Ru+2].c1ccc(-c2ccccn2)nc1.c1ccc(-c2ccccn2)nc1.c1csc(-c2ccc(-c3ccc(-c4cc5cccnc5c5ncccc45)s3)s2)c1,SK-MEL-28,cell viability,dark,50 ± 3 µM
CC[C@H](C)[C@H](NC(=O)[C@H](CC(N)=O)NC(=O)[C@H](CCCCN)NC(=O)[C@H](Cc1ccccc1)NC(=O)[C@H](Cc1ccccc1)NC(=O)[C@H](Cc1c[nH]cn1)NC(=O)[C@@H](NC(=O)[C@@H](NC(=O)[C@@H]1CCCN1C(=O)[C@@H](N)CC(N)=O)C(C)C)C(C)C)C(=O)N[C@H](C(=O)N[C@H](C(=O)N[C@@H](C)C(=O)O)[C@@H](C)O)C(C)C,T cell clone Ob.1A12,"T cell proliferation, agonist, [3H]thymidine incorporation","72 h, peptide-pulsed APC, with: EBV-transformed B cells DR2/DQ6 as APC",50 µM
F[P-](F)(F)(F)(F)F.F[P-](F)(F)(F)(F)F.[Ru+2].c1ccc(-c2ccccn2)nc1.c1ccc(-c2ccccn2)nc1.c1csc(-c2cc3cccnc3c3ncccc23)c1,SK-MEL-28,"cell viability, resazurin","16 h drug-to-light interval, with: visible light 100 J/cm2",1.4 µM and 1.39 µM
CCOC(=O)c1ccc(NC(=S)Nc2ccc3c(c2)C(C)(C)CC(C)(C)S3)cc1,HK-2,cell growth or viability,48 h,5.14 µM
CCCCCCCCC1(CCCCCCCC)c2cc(-c3cc4[n+]5c(c3)-c3cccc[n+]3[Ir-3]536([c]5c(c(C)cc(C)c5-c5cccc[n+]53)-c3cccc[n+]36)[n+]3ccccc3-4)ccc2-c2ccc(-c3cc4[n+]5c(c3)-c3cccc[n+]3[Ir-3]536([c]5c(c(C)cc(C)c5-c5cccc[n+]53)-c3cccc[n+]36)[n+]3ccccc3-4)cc21.F[P-](F)(F)(F)(F)F.F[P-](F)(F)(F)(F)F.F[P-](F)(F)(F)(F)F.F[P-](F)(F)(F)(F)F,SK-MEL-28,"cell viability, resazurin","16 h plus 48 h, dark",~50 µM and 49.9 µM

# Repeated from above:
Structure (SMILES),cell line,assay,setting,EC50
CCCCCCCCC1(CCCCCCCC)c2cc(-c3cc4[n+]5c(c3)-c3cccc[n+]3[Ir-3]536([c]5c(c(C)cc(C)c5-c5cccc[n+]53)-c3cccc[n+]36)[n+]3ccccc3-4)ccc2-c2ccc(-c3cc4[n+]5c(c3)-c3cccc[n+]3[Ir-3]536([c]5c(c(C)cc(C)c5-c5cccc[n+]53)-c3cccc[n+]36)[n+]3ccccc3-4)cc21.F[P-](F)(F)(F)(F)F.F[P-](F)(F)(F)(F)F.F[P-](F)(F)(F)(F)F.F[P-](F)(F)(F)(F)F,SK-MEL-28,"cell viability, resazurin","16 h plus 48 h, dark",~50 µM and 49.9 µM
